Measurements pooled from the literature.
A part holds a random share of what one study measured.
Chain of UniProt Q14653 (whole entry, unmodified, looked up): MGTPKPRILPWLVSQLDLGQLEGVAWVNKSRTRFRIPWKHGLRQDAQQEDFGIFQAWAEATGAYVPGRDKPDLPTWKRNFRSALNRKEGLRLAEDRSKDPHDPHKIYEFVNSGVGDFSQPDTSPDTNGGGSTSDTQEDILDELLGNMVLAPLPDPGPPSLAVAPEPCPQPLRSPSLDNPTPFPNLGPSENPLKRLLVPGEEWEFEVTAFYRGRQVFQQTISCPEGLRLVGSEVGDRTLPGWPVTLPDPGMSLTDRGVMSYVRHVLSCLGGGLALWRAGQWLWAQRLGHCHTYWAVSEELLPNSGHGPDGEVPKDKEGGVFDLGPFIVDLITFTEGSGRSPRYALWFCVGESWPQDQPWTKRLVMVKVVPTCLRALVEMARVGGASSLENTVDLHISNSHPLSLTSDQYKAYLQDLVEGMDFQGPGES

Sample 1 — technique: universal PBM; form: double-stranded DNA, one strand shown; matrix: in vitro; tested at: 600 nM; reading: higher = stronger binding
Target: Sal-like protein 4, full length isoform A (SALL4, Homo sapiens, UniProt Q9UJQ4, residues 1-1053)
Chain of UniProt Q9UJQ4 (whole entry, looked up): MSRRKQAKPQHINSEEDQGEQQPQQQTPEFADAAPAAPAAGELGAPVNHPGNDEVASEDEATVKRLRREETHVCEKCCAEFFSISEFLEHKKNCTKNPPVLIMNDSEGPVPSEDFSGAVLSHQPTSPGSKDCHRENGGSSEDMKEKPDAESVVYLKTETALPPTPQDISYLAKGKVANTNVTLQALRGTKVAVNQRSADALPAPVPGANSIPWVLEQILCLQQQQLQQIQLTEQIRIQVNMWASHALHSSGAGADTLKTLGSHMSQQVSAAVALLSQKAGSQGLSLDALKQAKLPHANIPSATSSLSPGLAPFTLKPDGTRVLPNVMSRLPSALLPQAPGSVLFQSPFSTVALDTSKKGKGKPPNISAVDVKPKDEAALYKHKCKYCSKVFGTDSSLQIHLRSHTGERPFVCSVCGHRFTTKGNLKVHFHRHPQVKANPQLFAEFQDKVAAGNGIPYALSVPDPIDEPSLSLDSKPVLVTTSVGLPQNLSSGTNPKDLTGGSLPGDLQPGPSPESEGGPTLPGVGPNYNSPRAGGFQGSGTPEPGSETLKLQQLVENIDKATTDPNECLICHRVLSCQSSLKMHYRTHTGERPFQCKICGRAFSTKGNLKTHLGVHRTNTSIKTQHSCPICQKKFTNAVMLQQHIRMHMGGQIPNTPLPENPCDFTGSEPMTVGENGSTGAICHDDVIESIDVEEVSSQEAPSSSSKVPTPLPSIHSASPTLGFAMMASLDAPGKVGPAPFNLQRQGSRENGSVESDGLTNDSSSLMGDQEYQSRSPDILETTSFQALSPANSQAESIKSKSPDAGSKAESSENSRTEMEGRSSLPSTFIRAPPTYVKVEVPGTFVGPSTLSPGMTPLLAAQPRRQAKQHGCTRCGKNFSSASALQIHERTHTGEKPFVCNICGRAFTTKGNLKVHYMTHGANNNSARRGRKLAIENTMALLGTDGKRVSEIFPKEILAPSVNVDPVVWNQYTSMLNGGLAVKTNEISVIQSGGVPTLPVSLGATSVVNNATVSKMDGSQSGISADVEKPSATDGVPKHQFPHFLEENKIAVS
Notes: 8-mer, flanks averaged, mean of replicates
Oligonucleotide	E-score
CCTATCAC	-0.131
CGAGCCCA	-0.255
GGTCCGAC	-0.33

Further values, each from its own experiment
F2 mature alpha-thrombin: Prothrombin, mature alpha-thrombin (F2, Homo sapiens, UniProt P00734)
Molecule	target	assay	test system	setting	scale	endpoint	value
GGTTGGTGTGGTTGG (2'F-ANA at 2 3 4 5 7 9 10 11 12 14)	F2 mature alpha-thrombin	aptamer microarray, sandwich	DNA with 2'F-ANA, in vitro	200 nM, whole 15-mer aptamer, many near background, added: Cy3 exosite-II aptamer, 400 nM	higher = stronger binding	mean fluorescence intensity	55.7 a.u.
PhoQ, residues 284 288 289 292 302 303 SNSSNI	PhoP, residues 12 14 15 18 19 AQALL (Escherichia coli, UniProt P23836)	Sort-seq, refers to: YFP reporter	E. coli	PhoQ-PhoP variant library, added: 10 µM Mg2+	relative to: high Mg2+ state, higher = stronger signaling	fold induction	14.3
GGTTGGTGTGGTTGG (2'F-ANA at 1 3 4 8 9 10 12 13 14)	F2 mature alpha-thrombin	aptamer microarray, sandwich	DNA with 2'F-ANA, in vitro	200 nM, whole 15-mer aptamer, many near background, added: Cy3 exosite-II aptamer, 400 nM	higher = stronger binding	mean fluorescence intensity	52.6 a.u.
GCCTAGCACTTAGGTTTGGGTTCCGGTTAGTGCTAGGTCTTGATTCGCTTGACGCTGCTG	Interferon regulatory factor 3, full length, phosphomimetic (IRF3, Homo sapiens, UniProt Q14653, residues 1-427, S386D/S396D/S398D/S402D/T404D/S405D)	protein-binding microarray	double-stranded DNA, one strand shown, in vitro	2540 nM top, 60-bp whole probe, added: salmon DNA 0.4 mg/ml	relative to: random background probes, higher = stronger binding	fitted relative affinity	1.24 z-score
GGTTGGTGTGGTTGG (2'F-ANA at 4 5 6 9 10 11 12)	F2 mature alpha-thrombin	aptamer microarray, sandwich	DNA with 2'F-ANA, in vitro	200 nM, whole 15-mer aptamer, many near background, added: Cy3 exosite-II aptamer, 400 nM	higher = stronger binding	mean fluorescence intensity	50.4 a.u.

Excerpt of the above (sample 1):
Oligonucleotide	E-score
CGAGCCCA	-0.255
